# Measured values gathered from unrelated publications.
# Every numbered part comes from another study and shows a few of its results, in no order. Several values in a cell are separate wells, animals, samples, runs or records.

# Block 1
# Target: Interferon regulatory factor 5, full length, phosphomimetic (IRF5, Homo sapiens, UniProt Q13568-2, residues 1-514, S451D/S453D/S456D/S462D)
# Method: protein-binding microarray
# Molecule type: double-stranded DNA, one strand shown
# Sample: in vitro
# Tested at: 940 nM top
# Setting: 60-bp whole probe
# Added: salmon DNA 0.4 mg/ml
# Reference: random background probes
# Reading: higher = stronger binding
# Constant ends, left off below: GCCTAGCAC … GTCTTGATTCGCTTGACGCTGCTG
Oligonucleotide,fitted relative affinity [z-score]
GACTGTCTCCTTATCCTGACGTGCTAG,0.766
TAAGGTTTCGGACTGGGTTAGTGCTAG,5.09
AGCTATCACTATTCTAGGGAAGTGCTA,0.3
TCAGGACTGGGTCTCGGTTAGTGCTAG,1.29
TCCCCTCTCATTCCAATTCTGTGCTAG,1.76

# Block 2
# Target: Sal-like protein 4, full length isoform A (SALL4, Homo sapiens, UniProt Q9UJQ4, residues 1-1053)
# Chain of UniProt Q9UJQ4 (whole entry, looked up): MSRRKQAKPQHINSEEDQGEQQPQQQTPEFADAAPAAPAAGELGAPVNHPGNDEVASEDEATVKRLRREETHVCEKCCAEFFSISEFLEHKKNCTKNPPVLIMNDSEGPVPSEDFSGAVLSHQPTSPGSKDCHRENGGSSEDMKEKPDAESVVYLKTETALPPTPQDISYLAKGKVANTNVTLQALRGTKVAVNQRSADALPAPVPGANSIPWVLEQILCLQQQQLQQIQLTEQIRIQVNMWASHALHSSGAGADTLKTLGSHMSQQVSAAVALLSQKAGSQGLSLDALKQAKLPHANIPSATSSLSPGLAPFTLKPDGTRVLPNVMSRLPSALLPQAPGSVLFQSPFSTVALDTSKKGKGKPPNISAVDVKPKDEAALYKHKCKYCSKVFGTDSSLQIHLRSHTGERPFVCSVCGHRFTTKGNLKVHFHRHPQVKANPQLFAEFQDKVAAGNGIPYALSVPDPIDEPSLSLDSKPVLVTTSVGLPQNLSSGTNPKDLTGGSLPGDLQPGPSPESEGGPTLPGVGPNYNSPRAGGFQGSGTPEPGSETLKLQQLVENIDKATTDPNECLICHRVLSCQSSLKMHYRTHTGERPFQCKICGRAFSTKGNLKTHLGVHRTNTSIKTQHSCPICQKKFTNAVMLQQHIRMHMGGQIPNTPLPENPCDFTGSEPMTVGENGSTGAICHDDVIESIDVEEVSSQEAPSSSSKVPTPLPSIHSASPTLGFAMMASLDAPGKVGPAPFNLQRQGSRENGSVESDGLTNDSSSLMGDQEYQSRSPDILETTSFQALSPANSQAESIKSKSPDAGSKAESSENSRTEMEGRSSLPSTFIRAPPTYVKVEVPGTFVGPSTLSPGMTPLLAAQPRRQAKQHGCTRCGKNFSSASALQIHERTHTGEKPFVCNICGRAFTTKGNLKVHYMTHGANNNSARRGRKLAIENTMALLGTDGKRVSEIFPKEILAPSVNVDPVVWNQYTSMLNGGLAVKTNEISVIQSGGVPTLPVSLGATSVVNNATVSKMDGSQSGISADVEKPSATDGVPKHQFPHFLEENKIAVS
# Method: universal PBM
# Molecule type: double-stranded DNA, one strand shown
# Sample: in vitro
# Tested at: 600 nM
# Setting: 8-mer, flanks averaged, mean of replicates
# Reading: higher = stronger binding
Oligonucleotide,E-score
CCGAGTCA,-0.0814
CGTTATAG,0.258
GCTCTGCA,-0.117
CGTATGGA,0.0573
GCTAAACA,0.112

# Block 3
# Target: Histone acetyltransferase KAT6A, winged helix 2, GST fusion (KAT6A, Homo sapiens, UniProt Q92794, residues 85-181)
# Method: protein binding microarray
# Molecule type: double-stranded DNA, one strand shown
# Sample: in vitro
# Tested at: not given
# Setting: 8-mer, flanks averaged, mean of 2 arrays, mostly near background
# Reference: not given
# Reading: higher = stronger binding
# Construct (chain): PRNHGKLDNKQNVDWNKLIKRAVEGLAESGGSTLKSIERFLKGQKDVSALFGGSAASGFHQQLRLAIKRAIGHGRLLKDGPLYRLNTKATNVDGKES
Oligonucleotide,E-score
AATATCAA,0.0441
TATCTAGA,0.118
GTGTTTTA,0.0623
GGCGATCA,0.0422

# Single results of other studies
Molecule,target,assay,test system,conditions,scale,quantity,result
"PhoQ, residues 284 288 289 292 302 303 AQGLTV","PhoP, residues 12 14 15 18 19 LWHCS (Escherichia coli, UniProt P23836)","Sort-seq, refers to: YFP reporter",E. coli,"PhoQ-PhoP variant library, added: 10 µM Mg2+","reference: high Mg2+ state, higher = stronger signaling",fold induction,1.36 and 1.65

# Some of these lines once more (single results of other studies):
Molecule,target,assay,test system,conditions,scale,quantity,result
"PhoQ, residues 284 288 289 292 302 303 AQGLTV","PhoP, residues 12 14 15 18 19 LWHCS (Escherichia coli, UniProt P23836)","Sort-seq, refers to: YFP reporter",E. coli,"PhoQ-PhoP variant library, added: 10 µM Mg2+","reference: high Mg2+ state, higher = stronger signaling",fold induction,1.36 and 1.65
